Measured values collected from several papers.
Compare with care: the assays were run in different laboratories. ± gives the spread as reported.

With `O=c1c(O)c(-c2ccc(-c3ccccc3)cc2)oc2cc(O)cc(O)c12` the viability was 82.1 ± 5.48% (human infant foreskin fibroblasts; trypan blue exclusion; 6 µM, 72 h, 10% FBS).
Under “Papp basolateral to apical”, `C#C[C@]1(CO)O[C@@H](n2cnc3c(N)nc(F)nc32)C[C@@H]1O` is recorded as 2.88 ± 0.26 ×10⁻⁶ cm/s (MDCK-II monolayer; 25 µM, with: EDTA).
With `CCCN1CCN(S(=O)(=O)c2ccc(C(=O)Nc3nc(-c4cc(C)ccc4C)cs3)cc2)CC1` the viability was less than 80% (THP-1; cell growth or viability, MTT; 5 µM, 18 h).
The EC50 of `C=C(C[C@H](N)C(=O)O)C(=O)NCc1ccc([N+](=O)[O-])cc1` is reported as 151 µM (MDA-MB-231; necrosis; 24 h).
`CCCCCCCCCC[N+](C)(C)C` has a CC50 of 39100 µM (horse erythrocytes; haemolysis).
For `C=C(C[C@H](N)C(=O)O)C(=O)N1CCCCC1`, the EC50 was greater than 316 µM (MDA-MB-231; necrosis; 24 h).
For `C=C(C[C@@H]1CCSc2ccccc21)c1ccccc1C`, the IC50 was 80.6 µM (RAW264.7; cytotoxicity, CCK-8; 24 h).
The viability of `O=C(Cc1c(-c2ccccc2)n[nH]c1-c1ccccc1)NO` is reported as 92% (SH-SY5Y; serum-free DMEM; 30 µM, 24 h, 1% DMSO).
`C[S+](C)[O-]` gave a viability of 51% (HEK293T; concentration not given).
For `Cc1cn(-c2cc(NC(=O)c3ccc(C)c(Nc4nccc(-c5cccnc5)n4)c3)cc(C(F)(F)F)c2)cn1`, “concentration of contraction prolongation” read no less than 3.7 µM (hiPSC-derived cardiomyocytes; 72 h).
`O=C(c1ccccc1)c1cccc(-c2oc3cc(O)cc(O)c3c(=O)c2O)c1` has a viability of 90.4 ± 4.85% (human infant foreskin fibroblasts; trypan blue exclusion; 12 µM, 72 h, 10% FBS).
Under “membrane partition constant”, `CCCCCCCCCCCCOS(=O)(=O)[O-].[Na+]` is recorded as 23000 M⁻¹ (HEK293-A; whole-cell patch clamp).
The viability of `O=c1c(O)c(-c2ccccc2)oc2cc(O)cc(O)c12` is reported as 92.6 ± 5.58% (human infant foreskin fibroblasts; trypan blue exclusion; 20 µM, 72 h, 10% FBS).
`Cc1c2oc3c(C)ccc(C(=O)N[C@@H]4C(=O)N[C@H](C(C)C)C(=O)N5CCC[C@H]5C(=O)N(C)CC(=O)N(C)[C@@H](C(C)C)C(=O)O[C@@H]4C)c3nc-2c(C(=O)N[C@@H]2C(=O)N[C@H](C(C)C)C(=O)N3CCC[C@H]3C(=O)N(C)CC(=O)N(C)[C@@H](C(C)C)C(=O)O[C@@H]2C)c(N)c1=O` gave a viability of greater than 95% (Caco-2; CCK-8; 1 to 6 µM, 5 h).
`C=C(C[C@H](N)C(=O)O)C(=O)NC1CC1` has an EC50 of greater than 316 µM (MCF-10A; necrosis; 24 h).
The viability of `O=c1c(O)c(-c2cccc(I)c2)oc2cc(O)cc(O)c12` is reported as 106 ± 5.79% (human infant foreskin fibroblasts; trypan blue exclusion; 13 µM, 72 h, 10% FBS).
For `C=C(C[C@H](N)C(=O)O)C(=O)Nc1ccc(F)cc1`, the EC50 was greater than 316 µM (MDA-MB-231; necrosis; 24 h).
For `COC1C(O)[C@@H](COP(=O)(O)OP(=O)([S-])OP(=O)(O)OP(=O)(O)OC[C@H]2O[C@@H](n3cnc4c(=O)[nH]c(N)nc43)C(O)C2O)O[C@H]1n1c[n+](C)c2c(O)nc(N)nc21` (mixture of isomers), “time of maximal expression” read 10.5 ± 0.05 h (human immature dendritic cells; translation, item: luciferase).
For `O=C(c1ccccc1)c1ccc(-c2oc3cc(O)cc(O)c3c(=O)c2O)cc1`, the viability was 111 ± 3.2% (human infant foreskin fibroblasts; trypan blue exclusion; 13 µM, 72 h, 10% FBS).
With `C[C@@H]1[C@H](O)[C@@H](C)/C=C/C=C/C=C/C=C/C=C/C=C/C=C/[C@H](O[C@@H]2O[C@H](C)[C@@H](O)[C@H](N)[C@@H]2O)C[C@@H]2O[C@](O)(C[C@@H](O)C[C@@H](O)[C@H](O)CC[C@@H](O)C[C@@H](O)CC(=O)O[C@H]1C)C[C@H](O)[C@H]2C(=O)O` the CC50 was 10.7 µM (THP-1; cell growth or viability, MTT; 72 h, pH 7.4).
`C=C(C[C@H](N)C(=O)O)C(=O)NCc1ccccc1` gave an EC50 of greater than 316 µM (MCF-10A; necrosis; 24 h).
`O=c1c(O)c(-c2ccc(O)c(O)c2)oc2cc(O)cc(O)c12` gave a viability of 94 ± 7.67% (human infant foreskin fibroblasts; trypan blue exclusion; 36 µM, 72 h, 10% FBS).
Under “time to significant decrease”, `CN(Cc1cnc2nc(N)nc(N)c2n1)c1ccc(C(=O)N[C@@H](CCC(=O)O)C(=O)O)cc1` is recorded as 7 to 17 days (LX-2 stellate cells; cell migration, confocal high-content imaging; liver microfluidic device with hepatocytes, EA.hy926, U-937; 30 nM, with: dexamethasone 100 nM; reference: vehicle).
For `O=C(c1cc(Cc2n[nH]c(=O)c3ccccc23)ccc1F)N1CCN(C(=O)C2CC2)CC1`, the EC50 was greater than 316 µM (MCF-10A; necrosis; 24 h).
With `C=C(C[C@@H]1CCOc2ccccc21)c1cc(C)cc(C)c1` the IC50 was 110 µM (RAW264.7; cytotoxicity, CCK-8; 24 h).
`C=C(C[C@H](N)C(=O)O)C(N)=O` gave an EC50 of 8.91 µM (MDA-MB-231; necrosis; 24 h).
`C=C(C[C@@H]1CCSc2ccc(Br)cc21)c1ccccc1` has an IC50 of 75.1 µM (RAW264.7; cytotoxicity, CCK-8; 24 h).
`CC/C(=C(\c1ccccc1)c1ccc(OCCN(C)C)cc1)c1ccccc1` has an EC50 of 269 µM (MCF-10A; necrosis; 24 h).
For `C=C(C[C@@H]1CCOc2ccc(Cl)cc21)c1ccccc1`, the IC50 was 166 µM (RAW264.7; cytotoxicity, CCK-8; 24 h).
Under cytotoxicity, `CCCCCCCCCCCCCC(=O)NCC(=O)O` is recorded as “not toxic” (Caco-2; WST-1; 50 and 500 µM, 24 h).
The cellular accumulation of `O=C(O[C@@H]1Cc2c(O)cc(O)cc2O[C@@H]1c1cc(O)c(O)c(O)c1)c1cc(O)c(O)c(O)c1` is reported as 1.38 ± 0.092% (Caco-2; concentration not given, 3 h; reference: fed).
`CCCCCCCC(=O)OC` — result for cytotoxicity: “not toxic” (Caco-2; WST-1; 50 and 500 µM, 24 h).
`CC/C(=C\c1ccc(OCC(=O)N[C@@H](Cc2ccccc2)C(=O)NCC(=O)OC)cc1)[N+](=O)[O-]` has a CC50 of 5.15 µM (THP-1; MTT; RPMI-1640 with 10% FBS; 72 h, pH 7.4).

For quick reference, copied from above:
`C=C(C[C@H](N)C(=O)O)C(N)=O` gave an EC50 of 8.91 µM (MDA-MB-231; necrosis; 24 h).
`C=C(C[C@@H]1CCSc2ccc(Br)cc21)c1ccccc1` has an IC50 of 75.1 µM (RAW264.7; cytotoxicity, CCK-8; 24 h).
